# Assay results collected from several papers.
# ± marks the error that the study gave.
SMILES,assay,test system,setting,terminal half-life [h]
C#C[C@]1(O)CC[C@H]2[C@@H]3CCC4=CC(=O)CC[C@@H]4[C@H]3CC[C@@]21CC,,human female,"oral, single dose oral contraceptive, cpd alone",37.7 ± 6.5
CC[C@H](C)[C@H](NC(=O)[C@H](Cc1ccccc1)NC(=O)[C@H](CCC(=O)O)NC(=O)[C@H](CCCCNC(=O)COCCOCCNC(=O)COCCOCCNC(=O)CC[C@H](NC(=O)CCCCCCCCCCCCCCCCC(=O)O)C(=O)O)NC(=O)[C@H](C)NC(=O)[C@H](C)NC(=O)[C@H](CCC(N)=O)NC(=O)CNC(=O)[C@H](CCC(=O)O)NC(=O)[C@H](CC(C)C)NC(=O)[C@H](Cc1ccc(O)cc1)NC(=O)[C@H](CO)NC(=O)[C@H](CO)NC(=O)[C@@H](NC(=O)[C@H](CC(=O)O)NC(=O)[C@H](CO)NC(=O)[C@@H](NC(=O)[C@H](Cc1ccccc1)NC(=O)[C@@H](NC(=O)CNC(=O)[C@H](CCC(=O)O)NC(=O)C(C)(C)NC(=O)[C@@H](N)Cc1cnc[nH]1)[C@@H](C)O)[C@@H](C)O)C(C)C)C(=O)N[C@@H](C)C(=O)N[C@@H](Cc1c[nH]c2ccccc12)C(=O)N[C@@H](CC(C)C)C(=O)N[C@H](C(=O)N[C@@H](CCCNC(=N)N)C(=O)NCC(=O)N[C@@H](CCCNC(=N)N)C(=O)NCC(=O)O)C(C)C,,"human, plasma","oral, 14 mg once daily, geometric mean",154
CN(CC#N)C(=O)C[C@H](Nc1nc2ccccc2[nH]1)c1cccc(C(F)(F)F)c1,,human,"intravenous infusion, 2 mg/kg, 1 mg/mL formulation",4.14 ± 0.45
C[C@@H](c1ccc2nccn2c1)n1nnc2ncc(-c3cnn(C)c3)nc21,noncompartmental analysis,"human, plasma","oral, 300 mg, cycle 2 day 1, multiple dosing",3.21
CN1C(=O)[C@@H](NC(=O)c2nnc(Cc3ccccc3)[nH]2)COc2cccnc21,,"human, plasma","oral, 200 mg once daily, day 14, geometric mean",6.61
Cc1ccc(=O)n(-c2ccccc2)c1,,healthy human,"oral, 600 mg single, alone",2.51
Cc1cc(-c2nnc(N)nc2-c2ccc(F)cc2)cc(Cl)n1,,"human patients, plasma","oral, 150 mg capsule, single dose, arithmetic mean",8.05
Cc1[nH]c(/C=C2\C(=O)Nc3ccc(F)cc32)c(C)c1C(=O)N[C@H]1CCN(C(=O)N(C)C)C1,,"human patients, plasma","oral, 150 mg single dose, added: everolimus 5 mg",4.8 ± 0.6
C[C@@]1(c2cc(NC(=O)c3ccc(C#N)cn3)ccc2F)C=CSC(N)=N1,,"elderly humans, both sexes, plasma","oral, 10 mg single dose, mean",14.4
COc1nnc2ccc(N3CCC(c4ccc(OCCN5CCN(C)C(=O)[C@H]5C)cc4)CC3)nn12,,"human, plasma","oral, 30 mg once daily, single dose, monotherapy",2.64
Cc1cc(Nc2ccc(S(F)(F)(F)(F)F)cc2)n2nc(C(C)(F)F)nc2n1,LC-MS/MS,"human vivax malaria patients, plasma","oral, 800 mg, mean",110
CN(C)CCCNC(=O)/C(=C/CCCCC(=O)NO)COc1cccc2ccccc12,,human,"intravenous, 312.5 mg/m^2, single dose, day one",6.58
Cc1cc(-c2nccc3c2ccn3CC(=O)Nc2ccc(-c3cnccn3)cn2)ccn1,,"human, plasma","oral, 20 mg once daily, day 16, geometric mean",17.2
O=C(O)CCC(=O)O.[2H]C([2H])([2H])Oc1cc(C)c2[nH]ccc2c1CN1CC[C@@H](C2CC2)C[C@H]1c1ccc(C(=O)O)cc1,,"healthy humans, fed","oral, 200 mg, single dose, high-fat meal",29.8
C#C[C@]1(O)CC[C@H]2[C@@H]3CCc4cc(O)ccc4[C@H]3CC[C@@]21C,,human female,"oral, single dose oral contraceptive, added: ritlecitinib 50 mg once daily multiple doses",19.5 ± 4.9
N#Cc1cc(NC(=O)[C@H]2c3ccccc3C(=O)N(CC(F)(F)F)[C@@H]2c2cccnc2)ccc1F,,human,"oral, median, interim, dose-independent",~18
CC(C)c1nc(N(C)S(C)(=O)=O)nc(-c2ccc(F)cc2)c1/C=C/[C@@H](O)C[C@@H](O)CC(=O)O,,"human, plasma","oral, dose not given, single dose alone, geometric mean",13.9
Cl.O=C(NC1CCOCC1)c1csc([C@@H]2C[C@H]2NCC2CC2)c1,,"human, fed, plasma","oral, 30 mg single dose",4.49
Cn1cc(-c2ccc(S(=O)(=O)[C@@H]3C[C@@H](C(=O)NC4(C#N)CC4)N(C(=O)C4(C(F)(F)F)CC4)C3)c(C(F)(F)F)c2)cn1,noncompartmental,"human, both sexes, plasma","oral, 100 mg once daily, day 1, with food, single dose",8.44
